# Results pooled from the literature.
# Lines come from different studies, so protocols differ. ± marks the error that the study gave.
# Cell line: HL-60
SMILES,assay,setting,endpoint,result
COc1ccc(C(O)=CC(=O)c2ccc(C(C)(C)C)cc2)cc1.[Ru+2].c1ccc(-c2ccccn2)nc1.c1ccc(-c2ccccn2)nc1,phototoxicity,"light over 450 nm, 29.1 J/cm2",IC50,0.17 µM
CCN(C(=O)c1cc(F)ccc1Oc1nncnc1N1CCC2(C1)CN([C@H](CCCN(C)CCOC)C(C)C)C2)C(C)C,cell growth or viability,7 days,GI50,> 10 µM
Cc1cc(C)cc(NC(=O)N(Cc2ccc(C(=O)NO)cc2)OCc2ccccc2)c1,"cell growth or viability, ATP luminescence",72 h,IC50,2.91 µM
CC(C)=CC1OC(C)(C)C2C=C3C(=O)C(Cl)=CC(O)C3C3C(O)C4OC4C(=O)C132 (stereo not drawn),"cell growth or viability, MTS",,IC50,1.09 µM
COCCn1cc(COc2cccc(Cc3cnc(NC(=O)CSc4nc(C)cc(C)n4)s3)c2)nn1,"cell viability, MTS",10 µM,inhibition,9.9 ± 2.8%
Cc1ccc([N+](=O)[O-])cc1S(=O)(=O)N(C)/N=C/c1cnc2ccc(Br)cn12,cell growth or viability,,IC50,0.005 µM
COc1ccc(C([O-])=CC(=O)c2ccc(C(C)(C)C)cc2)cc1.[Cl-].[Ru+2].c1ccc(-c2cccc(-c3ccccn3)n2)nc1,cytotoxicity,dark,IC50,0.57 µM
Cc1cc(C)nc(SCC(=O)Nc2ncc(Cc3cccc(OCc4cn(-c5ccc(Cl)cc5)nn4)c3)s2)n1,"cell viability, MTS",10 µM,inhibition,4.6 ± 3.6%
COC(CC1C(C)=CCC2C1(C)CCC1C(C)(C)C(O)C(O)CC12C)C(N)C(=O)O (stereo not drawn),"cell growth or viability, CCK-8",72 h,IC50,> 10 µM
COc1cccc2c1cc1c3c(cc4c(c32)OCO4)[C@@H]2c3c4c5c(cc6c(c5c5cccc(OC)c35)OCO6)CCN4[C@@H]2N1C (racemic),"cytotoxicity, XTT","50 µg/mL, 48 h",inhibition,< 50%
CO[C@@H](C[C@H]1C(C)=CC[C@@H]2[C@]3(C)C[C@H](O[C@@H]4O[C@@H](C)[C@H](OC(=O)c5cccc(O)c5)[C@@H](O)[C@H]4O)[C@@H](O)C(C)(C)[C@H]3CC[C@]21C)[C@H](N)C(=O)O,"cell growth or viability, CCK-8",72 h,IC50,> 10 µM
CC(C)c1ccc(N(C)c2ccc3c(c2)OCC[C@H]3CNc2cnccc2C(=O)O)cc1,cell proliferation,168 h,IC50,0.013 µM
